Measurements from different studies.
A part holds a random share of what one study measured. Values joined by “and” are separate records of one study, mostly repeats; a detail may differ.
UniProt P42336, sequence (whole entry, unmodified, looked up): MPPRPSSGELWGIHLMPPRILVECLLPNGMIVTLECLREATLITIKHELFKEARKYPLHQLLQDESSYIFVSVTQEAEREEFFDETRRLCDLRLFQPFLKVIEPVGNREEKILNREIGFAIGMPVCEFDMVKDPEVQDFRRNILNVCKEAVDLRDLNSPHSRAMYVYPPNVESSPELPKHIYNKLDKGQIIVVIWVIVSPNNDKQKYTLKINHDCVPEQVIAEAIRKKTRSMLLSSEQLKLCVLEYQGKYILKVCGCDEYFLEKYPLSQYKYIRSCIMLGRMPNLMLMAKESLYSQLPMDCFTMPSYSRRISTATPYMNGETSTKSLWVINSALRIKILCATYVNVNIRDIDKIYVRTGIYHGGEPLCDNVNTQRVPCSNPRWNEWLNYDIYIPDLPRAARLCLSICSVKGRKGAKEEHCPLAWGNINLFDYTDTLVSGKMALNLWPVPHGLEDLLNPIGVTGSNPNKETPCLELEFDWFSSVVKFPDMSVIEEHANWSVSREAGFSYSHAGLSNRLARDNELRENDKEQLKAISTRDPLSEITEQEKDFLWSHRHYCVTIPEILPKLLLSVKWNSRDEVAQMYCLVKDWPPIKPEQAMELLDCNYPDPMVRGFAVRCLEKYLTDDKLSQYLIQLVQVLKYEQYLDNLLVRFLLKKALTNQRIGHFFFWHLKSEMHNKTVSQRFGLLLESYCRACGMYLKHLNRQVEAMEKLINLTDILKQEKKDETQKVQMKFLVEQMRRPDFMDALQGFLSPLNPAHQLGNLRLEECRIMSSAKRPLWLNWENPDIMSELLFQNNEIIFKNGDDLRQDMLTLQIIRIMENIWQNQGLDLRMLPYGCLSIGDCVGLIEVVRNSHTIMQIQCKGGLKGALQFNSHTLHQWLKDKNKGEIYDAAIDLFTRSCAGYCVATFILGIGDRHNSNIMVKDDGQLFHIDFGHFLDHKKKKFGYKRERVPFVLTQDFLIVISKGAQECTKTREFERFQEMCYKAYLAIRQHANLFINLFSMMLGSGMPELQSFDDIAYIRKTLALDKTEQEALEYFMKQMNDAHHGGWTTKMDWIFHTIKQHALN
UniProt Q9Y6E0, sequence (whole entry, looked up): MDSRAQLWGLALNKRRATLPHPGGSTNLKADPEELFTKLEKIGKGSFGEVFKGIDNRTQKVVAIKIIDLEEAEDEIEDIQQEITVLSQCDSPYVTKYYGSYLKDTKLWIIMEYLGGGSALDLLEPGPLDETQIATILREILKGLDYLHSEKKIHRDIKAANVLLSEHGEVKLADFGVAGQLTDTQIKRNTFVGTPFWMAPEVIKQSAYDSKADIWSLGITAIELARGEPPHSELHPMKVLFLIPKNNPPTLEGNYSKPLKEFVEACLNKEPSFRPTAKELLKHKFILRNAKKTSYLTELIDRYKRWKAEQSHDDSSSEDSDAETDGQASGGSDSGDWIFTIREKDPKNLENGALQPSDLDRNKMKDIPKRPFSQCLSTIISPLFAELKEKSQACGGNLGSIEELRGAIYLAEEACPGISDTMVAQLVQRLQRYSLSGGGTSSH
UniProt P49840, sequence (whole entry, looked up): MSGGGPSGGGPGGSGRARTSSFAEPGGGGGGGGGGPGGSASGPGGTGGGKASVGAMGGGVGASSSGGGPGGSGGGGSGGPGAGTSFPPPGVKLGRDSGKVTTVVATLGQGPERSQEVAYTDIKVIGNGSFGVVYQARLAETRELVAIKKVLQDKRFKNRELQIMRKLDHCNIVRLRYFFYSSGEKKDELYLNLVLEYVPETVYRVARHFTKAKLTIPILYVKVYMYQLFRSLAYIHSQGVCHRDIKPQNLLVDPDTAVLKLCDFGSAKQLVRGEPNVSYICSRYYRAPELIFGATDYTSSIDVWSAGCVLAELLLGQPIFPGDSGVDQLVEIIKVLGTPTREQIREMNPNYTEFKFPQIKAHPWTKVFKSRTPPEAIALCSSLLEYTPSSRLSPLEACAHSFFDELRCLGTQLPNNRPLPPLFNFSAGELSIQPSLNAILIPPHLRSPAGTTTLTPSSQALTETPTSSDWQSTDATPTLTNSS
UniProt P27361, sequence (whole entry, looked up): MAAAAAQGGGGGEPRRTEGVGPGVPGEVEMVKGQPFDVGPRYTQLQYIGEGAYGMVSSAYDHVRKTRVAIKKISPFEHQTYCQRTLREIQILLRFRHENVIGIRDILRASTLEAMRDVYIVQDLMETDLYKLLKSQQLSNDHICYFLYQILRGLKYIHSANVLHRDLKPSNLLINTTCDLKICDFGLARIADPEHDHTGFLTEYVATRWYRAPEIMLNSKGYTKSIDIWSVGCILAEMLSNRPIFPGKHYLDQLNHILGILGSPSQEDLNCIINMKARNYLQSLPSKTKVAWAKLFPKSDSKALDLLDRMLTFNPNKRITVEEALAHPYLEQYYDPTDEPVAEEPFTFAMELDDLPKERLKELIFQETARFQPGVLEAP
UniProt P00519, sequence (whole entry, unmodified, looked up): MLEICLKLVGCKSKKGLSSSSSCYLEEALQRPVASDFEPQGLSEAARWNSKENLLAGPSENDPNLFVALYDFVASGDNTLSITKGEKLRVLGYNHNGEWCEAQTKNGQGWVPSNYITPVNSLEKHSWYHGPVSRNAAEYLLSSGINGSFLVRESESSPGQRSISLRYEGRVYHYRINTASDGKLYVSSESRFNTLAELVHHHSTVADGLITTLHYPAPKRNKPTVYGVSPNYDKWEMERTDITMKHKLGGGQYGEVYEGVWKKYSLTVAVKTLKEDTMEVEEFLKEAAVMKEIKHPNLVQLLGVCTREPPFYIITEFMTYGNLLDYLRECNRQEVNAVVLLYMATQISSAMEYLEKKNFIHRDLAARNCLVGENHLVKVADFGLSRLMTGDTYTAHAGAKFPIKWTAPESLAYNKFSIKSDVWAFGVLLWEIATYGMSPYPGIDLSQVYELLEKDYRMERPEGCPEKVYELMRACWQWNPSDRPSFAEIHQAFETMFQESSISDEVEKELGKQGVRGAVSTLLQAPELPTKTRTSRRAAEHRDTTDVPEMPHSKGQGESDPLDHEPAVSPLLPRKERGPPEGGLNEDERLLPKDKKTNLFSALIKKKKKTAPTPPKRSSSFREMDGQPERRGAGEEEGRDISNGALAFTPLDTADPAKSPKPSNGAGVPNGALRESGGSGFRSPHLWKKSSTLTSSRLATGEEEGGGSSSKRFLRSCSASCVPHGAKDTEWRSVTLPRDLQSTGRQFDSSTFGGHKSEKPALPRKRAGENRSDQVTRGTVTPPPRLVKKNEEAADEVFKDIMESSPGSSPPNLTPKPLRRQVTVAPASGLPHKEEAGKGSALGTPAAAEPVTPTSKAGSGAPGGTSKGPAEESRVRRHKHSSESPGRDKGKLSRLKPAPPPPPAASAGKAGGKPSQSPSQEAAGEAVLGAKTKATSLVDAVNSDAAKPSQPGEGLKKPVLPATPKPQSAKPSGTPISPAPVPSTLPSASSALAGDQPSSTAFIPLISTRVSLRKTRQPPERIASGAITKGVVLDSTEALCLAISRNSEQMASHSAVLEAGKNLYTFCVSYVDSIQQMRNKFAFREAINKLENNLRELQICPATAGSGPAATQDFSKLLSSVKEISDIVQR

Sample 1
Target: Fibroblast growth factor receptor 4 (FGFR4, Homo sapiens, UniProt P22455)
UniProt P22455, sequence (whole entry, looked up): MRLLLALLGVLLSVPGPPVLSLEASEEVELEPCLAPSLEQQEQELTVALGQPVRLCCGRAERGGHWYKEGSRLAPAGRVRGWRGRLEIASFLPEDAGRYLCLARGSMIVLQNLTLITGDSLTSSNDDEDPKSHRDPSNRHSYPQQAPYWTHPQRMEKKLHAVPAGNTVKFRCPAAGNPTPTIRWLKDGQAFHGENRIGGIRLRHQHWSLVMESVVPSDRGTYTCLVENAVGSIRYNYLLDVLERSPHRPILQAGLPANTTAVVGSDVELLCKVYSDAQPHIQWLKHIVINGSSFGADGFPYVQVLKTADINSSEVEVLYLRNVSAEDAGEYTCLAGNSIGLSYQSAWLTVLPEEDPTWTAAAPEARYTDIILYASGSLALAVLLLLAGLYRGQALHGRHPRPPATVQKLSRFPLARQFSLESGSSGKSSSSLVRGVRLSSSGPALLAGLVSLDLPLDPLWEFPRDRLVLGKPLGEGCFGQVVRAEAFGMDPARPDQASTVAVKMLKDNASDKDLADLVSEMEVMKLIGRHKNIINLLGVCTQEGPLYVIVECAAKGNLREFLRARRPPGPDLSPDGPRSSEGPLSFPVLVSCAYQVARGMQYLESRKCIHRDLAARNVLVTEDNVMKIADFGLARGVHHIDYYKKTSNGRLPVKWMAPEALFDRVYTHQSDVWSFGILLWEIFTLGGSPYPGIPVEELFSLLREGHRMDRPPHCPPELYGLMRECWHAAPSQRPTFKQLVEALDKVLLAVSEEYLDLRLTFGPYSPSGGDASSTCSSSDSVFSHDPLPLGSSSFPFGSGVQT
Read-out: enzyme activity
Mode: inhibitor
Concentration: 0.5 µM
Reference: control
Structure (SMILES) | remaining activity
N#C/C(=C(/N)SC1C=CC=CC1)c1cccc(C(O)c2ccncc2)c1 (centres unmarked) | 107%
COc1cc2c(Nc3ccc(Br)cc3F)ncnc2cc1OCC1CCN(C)CC1 | 90%
O=C1c2ccccc2-c2nc3nnnn3nc21 | 58%
CC(C)(C)c1nc2c3cc[nH]c(=O)c3c3cc(F)ccc3c2[nH]1 | 96.5%
O=C(O)/C=C/c1cc(Br)c(Br)c(Br)c1Br | 88.3%
NC(=O)c1cccc(-c2cc(Nc3ccc(OC(F)(F)F)cc3)ncn2)c1 | 92.9%
Nc1nc(Nc2ccc(S(N)(=O)=O)cc2)nn1C(=S)Nc1c(F)cccc1F | 32.2%
C[C@@H](N)[C@H]1CC[C@H](C(=O)Nc2ccncc2)CC1 | 108%
CNc1cc2c(Nc3cccc(Br)c3)ncnc2cn1 | 93.7%
O=c1c(-c2ccc(F)cc2)c(-c2ccncc2)[nH]n1-c1ccc(Cl)cc1 | 92.4%
CCCCc1c(-c2ccc(O)cc2)[nH]c2nccnc12 | 91.8%
N#CC(c1ccnc(NCCc2cccnc2)n1)c1nc2ccccc2s1 (centres unmarked) | 101%
COc1cc2c(N3CCN(C(=O)Nc4ccc(OC(C)C)cc4)CC3)ncnc2cc1OCCCN1CCCCC1 | 87.8%
O=C1NC(=O)/C(=C/c2ccc3c(c2)OC(F)(F)O3)S1 | 91%
FC(F)(F)c1ccc(/C=C/c2nc(COc3ccc(CCCCn4ccnn4)cc3)co2)cc1 | 88.3%
O=C(c1ccccc1)c1ccc(N2CCOCC2)cc1O | 106%
NC(=O)c1ccc(-c2nc(-c3ccc4c(c3)OCCO4)c(-c3ccccn3)[nH]2)cc1 | 91.1%
CC(C)N(CCC(=O)c1ccc2ccccc2c1)Cc1ccccc1 | 103%
CCN(CC)CCCCN1c2ccccc2Oc2ccc(Cl)cc21 | 92.6%
c1cc(-c2cnn3cc(-c4ccc(OCCN5CCCCC5)cc4)cnc23)ccn1 | 89%
CC(C)n1cnc2c(Nc3cccc(Cl)c3)nc(NCCO)nc21 | 86.5%
Clc1ccc(Nc2nnc(Cc3ccncc3)c3ccccc23)cc1 | 95.8%
O=Nc1c(-c2c(O)[nH]c3ccccc23)[nH]c2ccccc12 | 91.9%

Sample 2
Cell line: mouse MPNST tumor cells
Method: high-content immunofluorescence imaging
Refers to: nuclear SOX9
Concentration: 10 µM
Time: 12 h
Setting: mean of 2 replicates
Reference: DMSO control
Direction: higher = more nuclear SOX9
SMILES | nuclear SOX9 intensity
CCN(CC)CCNC(=O)c1cc(S(C)(=O)=O)ccc1OC | 109 % of DMSO
CN1CCN(C(=O)CNC2CC2c2ccc(OCc3ccccc3)cc2)CC1 (centres unmarked) | 130 % of DMSO
Clc1ccccc1C(c1ccccc1)(c1ccccc1)n1ccnc1 | 92.4 % of DMSO and 102 % of DMSO
CNNCc1ccc(C(=O)NC(C)C)cc1 | 94.6 % of DMSO and 90.3 % of DMSO
CC(C)Oc1ncc(-c2nc(-c3cccc4c3ccn4CCCC(=O)O)no2)cc1Cl | 97.7 % of DMSO
Cc1nn(C)c2nc(NNC(=O)Nc3cc(Cl)nc(Cl)c3)cc(C(C)C)c12 | 107 % of DMSO
COc1cc2c(cc1-c1c(C)noc1C)ncc1[nH]c(=O)n([C@H](C)c3ccccn3)c12 | 142 % of DMSO
O=C(CNC(=O)c1cccc(C(F)(F)F)c1)N[C@@H]1CCN(Cc2ccc(Cl)cc2)C1 | 131 % of DMSO
O=C(Nc1ccccc1C(=O)NC1CCCCNC1=O)c1cc2ccccc2s1 (centres unmarked) | 120 % of DMSO
Nc1ccc(S(=O)(=O)Nc2ccc(Cl)nn2)cc1 | 99 % of DMSO
CCCCCCNC(=O)Nc1ccc(S(=O)(=O)Nc2ccc(CCNC[C@H](O)COc3ccc(O)cc3)cc2)cc1 | 139 % of DMSO
CC(=O)OCC(=O)[C@@]1(O)CC[C@H]2[C@@H]3CCC4=CC(=O)CC[C@]4(C)[C@@]3(F)[C@@H](O)C[C@@]21C | 80.9 % of DMSO
Nc1ccc(S(=O)(=O)Nc2ccccn2)cc1 | 102 % of DMSO
N#C[C@@H]1CC[C@H](C#N)N1C(=O)CNC1(CO)CCCC1 | 115 % of DMSO
CN1c2cc3c(cc2N=C(c2ccc(C(=O)O)cc2)c2ccccc21)C(C)(C)CCC3(C)C | 132 % of DMSO
Cc1cccn2c(=O)c(-c3nnn[nH]3)cnc12 | 118 % of DMSO

Sample 3
Target: Calcium/calmodulin-dependent protein kinase type II subunit alpha (CAMK2A, Homo sapiens, UniProt Q9UQM7)
UniProt Q9UQM7, sequence (whole entry, looked up): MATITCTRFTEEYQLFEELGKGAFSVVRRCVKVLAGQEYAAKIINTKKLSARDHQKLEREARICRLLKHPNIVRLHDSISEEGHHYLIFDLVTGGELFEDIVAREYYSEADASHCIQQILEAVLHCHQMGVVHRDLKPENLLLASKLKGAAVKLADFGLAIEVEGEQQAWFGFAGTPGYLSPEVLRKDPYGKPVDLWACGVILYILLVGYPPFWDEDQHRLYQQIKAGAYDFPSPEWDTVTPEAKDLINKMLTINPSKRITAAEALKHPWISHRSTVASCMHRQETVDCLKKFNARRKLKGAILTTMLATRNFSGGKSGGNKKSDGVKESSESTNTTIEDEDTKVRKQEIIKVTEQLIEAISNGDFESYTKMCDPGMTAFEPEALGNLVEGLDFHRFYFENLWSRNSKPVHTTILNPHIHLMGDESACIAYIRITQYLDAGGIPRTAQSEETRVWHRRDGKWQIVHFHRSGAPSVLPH
Read-out: enzyme activity
Mode: inhibitor
Concentration: 10 µM
SMILES | inhibition [%]
Cc1ccc(C(N)=O)cn1 | -12
CCCCCC/C=C\CCCCCCCCCCCC(=O)O | -4
C#C[C@]1(O)CC[C@H]2[C@@H]3CCc4cc(OC5CCCC5)ccc4[C@H]3CC[C@@]21C | 0
CC(C)NC[C@@H](O)COc1cccc2ccccc12 | 5
CC#CCC(C)[C@H](O)/C=C/[C@@H]1[C@H]2C/C(=C/CCCC(=O)O)C[C@H]2C[C@H]1O (some centres unmarked) | 1
O=C1OCCN1/N=C/c1ccc([N+](=O)[O-])o1 | -5
OC1COC(O)CO1 (centres unmarked) | 5
CC(C)(C)[C@@H]1NC(=O)O[C@@H]2CCC[C@H]2OC/C=C/C(F)(F)c2nc3ccccc3nc2O[C@@H]2C[C@@H](C(=O)N[C@]3(C(=O)NS(=O)(=O)C4(C)CC4)C[C@H]3C(F)F)N(C2)C1=O | -9
CCOCC(O)COc1ccc(NC(=O)CC[S+](C)C)cc1 (centres unmarked) | -5
CC(C)=CCC[C@](C)(O[C@@H]1O[C@H](CO[C@@H]2O[C@@H](CO)[C@H](O)[C@H]2O)[C@@H](O)[C@H](O)[C@H]1O)[C@H]1CC[C@]2(C)[C@@H]1[C@H](O)C[C@@H]1[C@@]3(C)CC[C@H](O)C(C)(C)[C@@H]3[C@@H](O)C[C@]12C | -8

Sample 4
Structure (SMILES): Cc1noc([C@H]2C[C@@H](c3ccc(C(F)(F)F)cc3)CN(C(=O)N3CCS(=O)(=O)C3)C2)n1
Concentration: 1 µM
target | read-out | method | remaining binding [%]
MAPK3 (Homo sapiens, UniProt P27361) | cell-free assay | competition with immobilised ligand | 100
PKMYT1 (Homo sapiens, UniProt Q99640) | cell-free assay | competition with immobilised ligand | 100
CDK11B (Homo sapiens, UniProt P21127) | cell-free assay | competition with immobilised ligand | 100
LIM domain kinase 1 (LIMK1, Homo sapiens, UniProt P53667) | cell-free assay | competition with immobilised ligand | 100
EPHB6 (Homo sapiens, UniProt O15197) | cell-free assay | competition with immobilised ligand | 73
EPHB3 (Homo sapiens, UniProt P54753) | cell-free assay | competition with immobilised ligand | 100
MAK (Homo sapiens, UniProt P20794) | binding | competition with immobilised ligand | 100
ANKK1 (Homo sapiens, UniProt Q8NFD2) | cell-free assay | competition with immobilised ligand | 100
STK24 (Homo sapiens, UniProt Q9Y6E0) | cell-free assay | competition with immobilised ligand | 100
RIPK2 (Homo sapiens, UniProt O43353) | cell-free assay | competition with immobilised ligand | 100
MAP4K3 (Homo sapiens, UniProt Q8IVH8) | cell-free assay | competition with immobilised ligand | 100
CSNK1G1 (Homo sapiens, UniProt Q9HCP0) | cell-free assay | competition with immobilised ligand | 100
CSNK2A1 (Homo sapiens, UniProt P68400) | cell-free assay | competition with immobilised ligand | 86
PIK3CA (Homo sapiens, UniProt P42336, H1047L) | cell-free assay | competition with immobilised ligand | 100
BRAF (Homo sapiens, UniProt P15056) | cell-free assay | competition with immobilised ligand | 97
PRKACA (Homo sapiens, UniProt P17612) | cell-free assay | competition with immobilised ligand | 100
GSK3A (Homo sapiens, UniProt P49840) | cell-free assay | competition with immobilised ligand | 79
Tyrosine-protein kinase ABL1, phosphorylated (ABL1, Homo sapiens, UniProt P00519, F317I) | binding | – | 100
FLT4 (Homo sapiens, UniProt P35916) | cell-free assay | competition with immobilised ligand | 100
CSNK1G2 (Homo sapiens, UniProt P78368) | cell-free assay | competition with immobilised ligand | 100
MERTK (Homo sapiens, UniProt Q12866) | cell-free assay | competition with immobilised ligand | 100
STK35 (Homo sapiens, UniProt Q8TDR2) | cell-free assay | competition with immobilised ligand | 99
PIM1 (Homo sapiens, UniProt P11309) | cell-free assay | competition with immobilised ligand | 100
Tyrosine-protein kinase JAK1, JH2 (JAK1, Homo sapiens, UniProt P23458) | cell-free assay | competition with immobilised ligand | 74
PIK3CA (Homo sapiens, UniProt P42336, E545K) | cell-free assay | competition with immobilised ligand | 65
